Measured values gathered from unrelated publications.
Every numbered part comes from another study and shows a few of its results, in no order. Changes are numbered by the printed parent chain.

Sample 1
Target: Centromere-binding protein 1, full length, His-tagged (CBF1, Saccharomyces cerevisiae, UniProt P17106, residues 1-351)
Sequence of UniProt P17106 (whole entry, looked up): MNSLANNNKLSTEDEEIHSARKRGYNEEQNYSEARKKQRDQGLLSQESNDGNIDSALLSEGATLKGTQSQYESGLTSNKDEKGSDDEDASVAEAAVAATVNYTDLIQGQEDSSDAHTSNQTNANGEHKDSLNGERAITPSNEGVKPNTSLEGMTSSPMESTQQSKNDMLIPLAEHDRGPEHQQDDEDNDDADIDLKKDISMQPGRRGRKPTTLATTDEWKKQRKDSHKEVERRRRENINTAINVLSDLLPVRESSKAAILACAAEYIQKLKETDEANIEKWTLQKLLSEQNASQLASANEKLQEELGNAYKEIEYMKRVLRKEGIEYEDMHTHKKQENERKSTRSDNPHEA
Method: competition protein-binding microarray
Form: double-stranded DNA, one strand shown
Matrix: in vitro
Tested at: 2 µM
Setting: whole 60-bp probe, lowest competitor level
With: Pho4 competitor, 0.05 µM
Direction: higher = stronger binding
Shared flanks, not repeated: … GTCTTGATTCGCTTGACGCTGCTG
Oligonucleotide | fluorescence intensity
GTCTTGTCTCATTGGACGGTGGGTGTCCCCACTTCA | 70.7 a.u.
CTTTCCCGATCTTGTAGAGTGGGTGTAGCACATTTG | 67.6 a.u.
CGGGGTTAAGTTTGTCACGCTACTTGCTTGCAGCAG | 166 a.u.
CGTCCTAGCGATTGACTTGTGGGTGCCATGAGGAAG | 69.6 a.u.
AAAGCGGTAATTTGTCCGGTGGGTGCAGATATCTAT | 63.3 a.u.
CATACCCAACCTTGGCTTGTGGGTGAAGATATTTGT | 58.7 a.u.
TTGCTGAGGAAGAGAGACGTGCTTTTGCCAACTCCA | 72.4 a.u.
CGTCCTAGTGATTGCTCAGTGGGTGCCATGAGGAAG | 78.3 a.u.
GCGTCCATGGGAGTGCTCCTGCAACGTACTTCATCT | 55.7 a.u.
GCACTAGTCCAATAAGTCGTGCGATTCCAAAGTTCA | 86.1 a.u.
TTATGATACAGTTCTCCCGTGGTTACCAGCTTGGCA | 86.1 a.u.
CGTCCTAGTGATTGCGCGGTGGGTGCCATGAGGAAG | 87.4 a.u.
CGTCCTAGTGATTGTTTGGTGGGTGCCATGAGGAAG | 89.8 a.u.
CTTCTGTAAATTTGTTAGGTGGGTGGACGCGCCCCG | 96.8 a.u.
AATAGGCGCCAAGTTTCCGTGGGTAACTATGACTTT | 68.7 a.u.
CGGGGTTAAGTTTGAGTAGTGGGTGGCTTGCAGCAG | 71.2 a.u.

Sample 2
Target: Interferon regulatory factor 5, full length, phosphomimetic (IRF5, Homo sapiens, UniProt Q13568-2, residues 1-514, K96S/S451D/S453D/S456D/S462D)
Method: protein-binding microarray
Form: double-stranded DNA, one strand shown
Matrix: in vitro
Tested at: 250 nM
Setting: 60-bp whole probe
With: salmon DNA 0.4 mg/ml
Relative to: random background probes
Direction: higher = stronger binding
Shared flanks, not repeated: GCCTAGCAC … GTCTTGATTCGCTTGACGCTGCTG
Oligonucleotide | log fluorescence [z-score]
GACGATTTCTGGTTTCGAGACGTGCTA | 3.97
TTAGGTTTCGGTATCGGTAAGTGCTAG | 10.9
GACGGTTTCCTTCTCGTGACGTGCTAG | 0.906
GAAGGTTTCGACACTGGGGACGTGCTA | 4.12
TTAGATCTCAGTCTCGAGTAGTGCTAG | 0.272
AAGCTCCTATCTTATGATATAGTGCTA | 0.279
TTAGTTTTCGGTCTCGGTTAGTGCTAG | 9.01
GACGGACTGCTACTCCTGACGTGCTAG | -0.333
TTCCCAATGGTCTTTCCACTTGTGCTA | 0.118
TTAGGTCTCGGACCGGGTTAGTGCTAG | -0.212
GACGATCTCAGACTGGAGACGTGCTAG | -0.221
TCAGGTCTCGCTATGTTACTGTGCTAG | 0.0944
TAAGTTTCACTTTCCAAAGCGTGCTAG | 8.46
TCAGAGCTCCTCCTTCTCACTGTGCTA | -0.462
GAAGCTTCTTTTTTATTCTAGTGCTAG | 0.76
GACGGACTGCGGTTTCGGGACGTGCTA | 1.7
TCACATACTAGTTTCCAACTGTGCTAG | 0.471
TTAGGTATCGACGCTGGGTTAGTGCTA | 1.69
CTCTTTTTGCTTTCTTTTATGTGCTAG | 2.72
TTAGGTATCGGGTTTCGCTTAGTGCTA | 5.99
TTAGACTCCAGTTTCGATTAGTGCTAG | 9.64
CTCCCCTTGCTTTCCAATTCGTGCTAG | -0.000285

Sample 3
Target: CCNE2, cyclin fold, Cln2 fusion (human)
Method: yeast growth competition, sequencing
Matrix: yeast
Setting: strong parent motif
Relative to: not given
Direction: higher = stronger binding
Parent: WEE1 docking peptide (human); HKTFRKLRLFDTP; partner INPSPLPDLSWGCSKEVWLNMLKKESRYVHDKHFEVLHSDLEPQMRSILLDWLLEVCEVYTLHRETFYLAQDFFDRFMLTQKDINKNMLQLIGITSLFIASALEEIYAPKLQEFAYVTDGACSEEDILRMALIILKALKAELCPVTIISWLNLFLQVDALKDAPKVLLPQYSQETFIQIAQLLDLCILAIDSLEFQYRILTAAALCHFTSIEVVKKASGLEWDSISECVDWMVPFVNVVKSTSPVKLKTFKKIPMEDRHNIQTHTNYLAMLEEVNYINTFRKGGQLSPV
Variant | normalised enrichment score
K6L | -0.176
K6P | 0.901
F4W | 1.33
K2T | 1.22
H1K | 0.938
T3E | -0.0899
R5A L7A | 1.11
L7A | -0.584
L9I | 0.563
L9N | 0.776
P13C | 1.4
R5D | 0.0632
D11W | 0.956
L9G | 0.528
F4Q | 0.533
K6V | 0.38
D11T | 1.26
K6F | -0.572
F10P | 0.549

Sample 4
Target: ABI1, truncated, D143A, DHFR fusion (Arabidopsis thaliana)
Method: DHFR PCA, deep sequencing
Matrix: yeast
Setting: methotrexate growth selection, single substitutions
With: (+)-ABA 1.4 µM
Relative to: wild-type fitted maximum
Direction: higher = stronger binding
Parent: PYL1, truncated, DHFR fusion (Arabidopsis thaliana); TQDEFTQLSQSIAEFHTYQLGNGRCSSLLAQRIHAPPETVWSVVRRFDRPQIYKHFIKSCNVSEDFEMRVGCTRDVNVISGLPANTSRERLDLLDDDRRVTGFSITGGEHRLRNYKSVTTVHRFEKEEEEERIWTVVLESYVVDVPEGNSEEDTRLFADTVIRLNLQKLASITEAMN; partner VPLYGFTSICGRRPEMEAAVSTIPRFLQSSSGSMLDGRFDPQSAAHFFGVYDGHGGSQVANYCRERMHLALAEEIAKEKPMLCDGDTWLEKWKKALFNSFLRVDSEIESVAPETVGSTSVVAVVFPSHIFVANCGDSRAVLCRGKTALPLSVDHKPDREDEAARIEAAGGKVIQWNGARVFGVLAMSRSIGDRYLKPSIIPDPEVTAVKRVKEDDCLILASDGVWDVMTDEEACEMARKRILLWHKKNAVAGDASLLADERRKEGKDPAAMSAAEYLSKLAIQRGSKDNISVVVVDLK
Variant | relative binding score [%]
V145T | -7.28
R49M | 48.6
V137M | 0.356
V43H | -7.47
Y18F | -2.39
R24G | -0.0884
T160Q | -0.00547
T119Y | -0.51
L28D | 7.54
D65K | 43.6
V78C | 38.3
E4H | 51.2
D95Y | -0.487
W41V | 1.55
I105Q | -17.9
G102K | -2.56
T106N | 4.63
S42G | 43.9
R90D | 3.84
R155H | -1.63

Sample 5
Target: Fragile X messenger ribonucleoprotein 1, C-terminal low-complexity region (Fmr1, Mus musculus, UniProt P35922)
Method: RNA Bind-n-Seq
Form: RNA
Matrix: in vitro
Tested at: 200 nM
Setting: whole 134-nt RNA, ends assumed
With: 150 mM KCl
Relative to: input library
Direction: higher = stronger binding
Shared flanks, not repeated: GGGAGUUCUACAGUCCGACGAUC … UGGAAUUCUCGGGUGUCAAGG
Oligonucleotide | log2 enrichment
UAACUUUAGAGGAGGAUCUGAUGGAUAUGGCAGUGGACGUGGAUUCGGGGAUGGCUAUAAUGGGUAUGGAGGAGGACCUGGAGGUGGCAA | 0.117
CUCAAGUCCUGUGCUACACAUCGUAUGUACCGAAUCGGGUUUGGGAGGGAGGGAAAGUAUUAUGUUACGCCGUUCGGAUCUGCACUUCCA | 1.37
CAAGUCCUGUGCUACACAUCGUAUGUACCGAAUCGGAGGUUUUUGGUUUUUUUGGAAAGUAUUAUGUUACGCCGUUCGGAUCUGCACUUC | -0.824
CUCAAGUCCUGUGCUACACAUCGUAUGUACCGAAUCGGGGCCGGCCGGGCCGGGAAAGUAUUAUGUUACGCCGUUCGGAUCUGCACUUCC | -0.203
AAGUCCUGUGCUACACAUCGUAUGUACCGAAUCGGGGUUUUGGGUUUUGGUUUUGGAAAGUAUUAUGUUACGCCGUUCGGAUCUGCACUU | -0.379
CAAGUCCUGUGCUACACAUCGUAUGUACCGAAUCGGAAAAGGAAAAGGGAAAAGGGAAAGUAUUAUGUUACGCCGUUCGGAUCUGCACUU | -0.861
CCUCAAGUCCUGUGCUACACAUCGUAUGUACCGAAUCGGUUGGUUGGUUGGGGAAAGUAUUAUGUUACGCCGUUCGGAUCUGCACUUCCA | -0.00898
CACAGACAACACGCACCCACACACACACAGAGGGAAGGGGUUGGGAUGGGGACAGGGUGCACAGCAGGGCGGGGUAGGACCCCAGCCCCU | 1.16
GUCCUGUGCUACACAUCGUAUGUACCGAAUCAAAUUUUUUUAAAUUUUUAAACCCAAAAAAGUAUUAUGUUACGCCGUUCGGAUCUGCAC | 0.182
UCCUGUGCUACACAUCGUAUGUACCGAAUCGGGGAAAAAGGGGUUUUUGGGGAAAGGGGAAAGUAUUAUGUUACGCCGUUCGGAUCUGCA | 0.799

For quick reference, copied from above (sample 4):
Variant | relative binding score [%]
Y18F | -2.39
T119Y | -0.51
V78C | 38.3
G102K | -2.56
V137M | 0.356
L28D | 7.54
R155H | -1.63
R24G | -0.0884
I105Q | -17.9
R90D | 3.84
T160Q | -0.00547
W41V | 1.55
D65K | 43.6
